Experimental data pooled from the literature.
Parts stem from different laboratories: compare values within a part only.

Series 1
Target: RING finger protein unkempt homolog, zinc fingers 1-6, SBP tag (UNK, Homo sapiens, UniProt Q9C0B0, residues 30-357)
UniProt Q9C0B0, sequence (30-357, looked up): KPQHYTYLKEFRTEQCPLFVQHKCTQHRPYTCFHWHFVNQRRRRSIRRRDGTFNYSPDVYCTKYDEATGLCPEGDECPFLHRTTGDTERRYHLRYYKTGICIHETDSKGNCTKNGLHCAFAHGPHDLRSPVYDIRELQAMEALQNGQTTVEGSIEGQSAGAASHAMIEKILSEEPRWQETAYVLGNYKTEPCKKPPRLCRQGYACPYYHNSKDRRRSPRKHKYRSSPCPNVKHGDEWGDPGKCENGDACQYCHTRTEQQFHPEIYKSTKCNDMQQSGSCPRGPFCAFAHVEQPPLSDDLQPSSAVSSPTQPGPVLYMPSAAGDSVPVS
Technique: RNA Bind-n-Seq
Molecule type: RNA
Sample: in vitro
Concentration: 100 nM
Notes: RNA with constant flanks, vertebrate orthologous sites, ends assumed
Baseline: input RNA pool
Direction: higher = stronger binding
The bound/input enrichment of `GGGAGUUCUACAGUCCGACGAUCUCCAGUCUUACACUUAUGGUUGGCCUCAAAUCUAUUGCAUUUAUGAUAAUGUAUUAUAUCUAGUUGAGUUUAAUAUUUUUUAUUAGCCUGUAAAUAAAGAUGGCAUCUUCUACAUUAAAACAACAGAGGAUUGAGCAUCA` is reported as 0.514 ratio.
`GGGAGUUCUACAGUCCGACGAUCUGGGCGCCCUCUUUGGGGAGCUGCUGGCCGCUUAGCGUUGUUUGAUUUUUGACCUUGACAUAGUAGAUAGGCUUGUGGUUUUUUUAAUUUAAACAUAUUAAGACUUAAUUCACUAAAAUUCAACAGAGGAUUGAGCAUCA` has a bound/input enrichment of 0.813 ratio.
The bound/input enrichment of `GGGAGUUCUACAGUCCGACGAUCAAUAGGUUUAAGCUUGUUUGCACAGUUUUUUUACUCCAUUGGAGAUGGAAUUCAUUGCCUUAGGUCUUUUUAAUAGUGUAUUGUUAUUGUUGGGCUGGCUCUAUGCUUGAAAACCAGUUUCAACAGAGGAUUGAGCAUCA` is reported as 1.61 ratio.
The bound/input enrichment of `GGGAGUUCUACAGUCCGACGAUCAUCUCUCAGUGACAGCAUUCCGUCAGUAGCUGACUCCCACUCGAGUCAUUUUUCUGAAUUUAGUUGCUCUGAUUUGGAAAGCAUGAAAACUUCUUGUAGUCAUGGAUCCAAUGAUUAUCACAACAGAGGAUUGAGCAUCA` is reported as 0.331 ratio.

Series 2
Target: Ras GTPase-activating protein-binding protein 1, full length (G3BP1, Homo sapiens, UniProt Q13283)
UniProt Q13283, sequence (whole entry, looked up): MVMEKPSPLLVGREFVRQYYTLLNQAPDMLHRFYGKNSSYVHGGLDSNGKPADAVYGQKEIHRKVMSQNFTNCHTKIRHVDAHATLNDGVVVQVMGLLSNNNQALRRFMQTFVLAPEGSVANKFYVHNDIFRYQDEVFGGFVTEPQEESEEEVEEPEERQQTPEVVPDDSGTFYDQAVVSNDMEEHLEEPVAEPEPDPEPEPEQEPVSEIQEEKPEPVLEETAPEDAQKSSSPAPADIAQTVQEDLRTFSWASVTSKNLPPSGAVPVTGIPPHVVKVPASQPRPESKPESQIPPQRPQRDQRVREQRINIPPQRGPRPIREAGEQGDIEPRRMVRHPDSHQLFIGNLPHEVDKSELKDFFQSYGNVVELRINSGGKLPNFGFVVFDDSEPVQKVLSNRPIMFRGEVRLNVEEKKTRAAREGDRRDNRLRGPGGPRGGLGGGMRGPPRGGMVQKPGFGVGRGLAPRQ
Technique: RNA Bind-n-Seq
Molecule type: RNA
Sample: in vitro
Concentration: 200 nM
Notes: whole 134-nt RNA, ends assumed
Together with: 150 mM KCl
Baseline: input library
Direction: higher = stronger binding
`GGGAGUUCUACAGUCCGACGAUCGAAAAUUUCUCAGUUCUUAAGAAUGCUUGCUGUGGGUAUAGUGCAGGUAUAUUGAAAGGAAUUUUUUUCUUGCAGCGGGAAAGAGACAUGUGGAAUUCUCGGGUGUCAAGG` gave a log2 enrichment of -1.22.
For `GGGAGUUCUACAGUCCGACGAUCGCAGGAAGUAAAAACAAAUGGAAAUGCUUCGGAUAGUGGCAGUGGUGGGGGUUGCUAAGGAAAGGGUGGGAUGGGAGUGGGUAAAGAGUUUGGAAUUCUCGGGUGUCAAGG`, the log2 enrichment was 0.704.
For `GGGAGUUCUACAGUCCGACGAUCUGGCCCUGGUGCCAUGCGGGGAGGAAGAGGUGGCCUCAUGGAUCGUGGUGGUCCCGGUGGAAUGUUCAGAGGUGGCCGUGGUGGAGACAGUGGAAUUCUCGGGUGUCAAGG`, the log2 enrichment was 0.527.
With `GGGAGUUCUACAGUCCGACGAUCUCCUGUGCUACACAUCGUAUGUACCGAAUCGGGGAAAAAGGGGAAAAAGGGAAAAAGGGAAAGUAUUAUGUUACGCCGUUCGGAUCUGCAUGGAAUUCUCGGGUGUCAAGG` the log2 enrichment was 0.0857.
The log2 enrichment of `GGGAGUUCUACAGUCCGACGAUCGUCCUGUGCUACACAUCGUAUGUACCGAAUCGGGGUUUGGGGUUUUUUUGGGGUGGGGAAAGUAUUAUGUUACGCCGUUCGGAUCUGCACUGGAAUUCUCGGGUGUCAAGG` is reported as 0.553.

Series 3
Target: Histone acetyltransferase KAT6A, winged helix 1, GST fusion (KAT6A, Homo sapiens, UniProt Q92794, residues 1-85)
Technique: protein binding microarray
Molecule type: double-stranded DNA, one strand shown
Sample: in vitro
Concentration: not given
Notes: 8-mer, flanks averaged, mean of 2 arrays, mostly near background
Baseline: not given
Direction: higher = stronger binding
Target sequence (chain): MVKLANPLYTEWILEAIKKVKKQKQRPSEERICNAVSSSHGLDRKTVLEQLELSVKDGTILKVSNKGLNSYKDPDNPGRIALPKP
`ACGTCTCA` has an E-score of -0.126.
With `CAGCTATA` the E-score was -0.094.
`ATATATAC` gave an E-score of -0.0198.
For `AGGCCTCA`, the E-score was -0.106.

Further values, each from its own experiment
For `PhoQ, residues 284 288 289 292 302 303 SSTLSG`, the fold induction was 0.479 (PhoP, residues 12 14 15 18 19 AQCLL (Escherichia coli, UniProt P23836); Sort-seq, measured: YFP reporter; E. coli; PhoQ-PhoP variant library, together with: 10 µM Mg2+; baseline: high Mg2+ state, higher = stronger signaling).

Repeated from above (series 3):
With `CAGCTATA` the E-score was -0.094.
